{"data": "Published values pooled from the literature", "cell line": "HCT-15"}
{"Compound": "CC(=O)OC[C@H]1O[C@@H](Sc2sc(C(=O)c3ccc(C)cc3)c(N)c2-c2nc3ccccc3s2)[C@H](OC(C)=O)[C@@H](OC(C)=O)[C@H]1OC(C)=O", "method": "SRB", "concentration": "10 µM", "time": "48 h", "relative to": "untreated", "endpoint": "growth", "value": "92.5%"}
{"Compound": "COc1ccc(C2=Nn3c(NN=C4C(=O)N(Cc5ccccc5)c5ccc(Cl)cc54)nnc3SC2)cc1", "read-out": "cell growth or viability", "method": "SRB", "concentration": "10 µM", "endpoint": "inhibition", "value": "43%"}
{"Compound": "COc1cc(CNC(=O)C[C@H](C)CCC=C(C)C)ccc1OCc1cn(-c2ccccc2)nn1", "method": "SRB", "concentration": "10 µM", "time": "48 h", "endpoint": "growth percent", "value": "88%"}
{"Compound": "COc1cccc2c(NCc3ccccc3)nc(Nc3cccc(Cl)c3)nc12", "read-out": "cell growth or viability", "time": "72 h", "endpoint": "GI50", "value": "19 µM"}
{"Compound": "COc1cc(/C=C/C(=O)/C=C(O)/C=C/c2ccc(OCC(=O)N3CCOCCOCCOCCOCC3)c(OC)c2)ccc1OCC(=O)N1CCOCCOCCOCCOCC1", "read-out": "cell growth or viability", "method": "SRB", "concentration": "5 µM", "endpoint": "inhibition", "value": "18.1%"}
{"Compound": "Clc1cccc(Nc2nc(NCc3ccccc3)c3ccccc3n2)c1", "read-out": "cell growth or viability", "time": "24 h", "endpoint": "GI50", "value": "5 µM"}
{"Compound": "COc1cc(CNC(=O)C[C@H](C)CCC=C(C)C)ccc1OCc1cn(-c2cccc(C(F)(F)F)c2)nn1", "method": "SRB", "concentration": "10 µM", "time": "48 h", "endpoint": "growth percent", "value": "56.8%"}
{"Compound": "COc1cccc2c(NCc3ccccc3)nc(NCc3cccs3)nc12", "read-out": "cell growth or viability", "time": "72 h", "endpoint": "GI50", "value": "0.7 µM"}
{"Compound": "COc1cc(CNC(=O)C[C@H](C)CCC=C(C)C)ccc1OCc1cn(-c2ccc(Br)cc2)nn1", "method": "SRB", "concentration": "10 µM", "time": "48 h", "endpoint": "growth percent", "value": "82.3%"}
{"Compound": "CC/C=C\\C/C=C\\C/C=C\\C/C=C\\C/C=C\\C/C=C\\CCC(=O)Nc1ccn(C2OC(CO)C(O)C2(F)F)c(=O)n1 (centres unmarked)", "method": "NCI60 screen", "endpoint": "TGI", "value": "25.3 µM"}
{"Compound": "Fc1cccc(CNc2nc(NCc3ccccc3)c3ccccc3n2)c1", "read-out": "cell growth or viability", "time": "72 h", "endpoint": "GI50", "value": "3.5 µM"}
{"Compound": "COc1cc(CNC(=O)C[C@H](C)CCC=C(C)C)ccc1OCc1cn(-c2ccccc2[N+](=O)[O-])nn1", "method": "SRB", "concentration": "10 µM", "time": "48 h", "endpoint": "growth percent", "value": "62.4%"}
{"Compound": "CC(=O)OC[C@H]1O[C@@H](Sc2sc(C(=O)c3ccc(Br)cc3)c(N)c2-c2nc3ccccc3s2)[C@H](OC(C)=O)[C@@H](OC(C)=O)[C@@H]1OC(C)=O", "method": "SRB", "concentration": "10 µM", "time": "48 h", "relative to": "untreated", "endpoint": "growth", "value": "18.6%"}
{"Compound": "COc1cc(CNC(=O)C[C@H](C)CCC=C(C)C)ccc1OCc1cn(-c2ccc(Cl)cc2Cl)nn1", "method": "SRB", "concentration": "10 µM", "time": "48 h", "endpoint": "growth percent", "value": "79.6%"}
{"Compound": "Brc1cccc(CNc2nc(NCc3ccccc3)c3ccccc3n2)c1", "read-out": "cell growth or viability", "time": "72 h", "endpoint": "GI50", "value": "3.5 µM"}
{"Compound": "COc1cc(CNC(=O)C[C@H](C)CCC=C(C)C)ccc1OCc1cn(-c2ccc(F)cc2)nn1", "method": "SRB", "concentration": "10 µM", "time": "48 h", "endpoint": "growth percent", "value": "91.7%"}
{"Compound": "CC(=O)OCC1(O)C(Nc2cccc(C(C)=O)c2)C(N)C(NC(=O)N(C)C)(C(C)OC(C)=O)C1(C)O (centres unmarked)", "read-out": "cell growth or viability", "method": "SRB", "endpoint": "GI50", "value": "10.2 µM"}
{"Compound": "COc1cccc(CNc2nc(NCc3ccccc3)c3ccccc3n2)c1", "read-out": "cell growth or viability", "time": "72 h", "endpoint": "GI50", "value": "3.9 µM"}
{"Compound": "COc1cc(/C=C/C(=O)/C=C(O)/C=C/c2ccc(OCC(=O)N3CCOCCOCCOCC3)c(OC)c2)ccc1OCC(=O)N1CCOCCOCCOCC1", "read-out": "cell growth or viability", "method": "SRB", "concentration": "5 µM", "endpoint": "inhibition", "value": "25%"}
{"Compound": "CC(=C(c1ccc(O)cc1)c1ccc(Cl)cc1)c1ccc(Cl)cc1", "read-out": "cell growth or viability", "method": "SRB", "endpoint": "GI50", "value": "0.74 µM"}
{"note": "Excerpt of the above:"}
{"Compound": "Clc1cccc(Nc2nc(NCc3ccccc3)c3ccccc3n2)c1", "read-out": "cell growth or viability", "time": "24 h", "endpoint": "GI50", "value": "5 µM"}
{"Compound": "COc1cc(CNC(=O)C[C@H](C)CCC=C(C)C)ccc1OCc1cn(-c2cccc(C(F)(F)F)c2)nn1", "method": "SRB", "concentration": "10 µM", "time": "48 h", "endpoint": "growth percent", "value": "56.8%"}
